Published values from different studies.
Compare with care: the assays were run in different laboratories. Numbers after ± are the reported error.
MC4R L133M: Melanocortin receptor 4 (MC4R, Homo sapiens, UniProt P32245, L133M)
Chain of UniProt P32245 (whole entry, unmodified, looked up): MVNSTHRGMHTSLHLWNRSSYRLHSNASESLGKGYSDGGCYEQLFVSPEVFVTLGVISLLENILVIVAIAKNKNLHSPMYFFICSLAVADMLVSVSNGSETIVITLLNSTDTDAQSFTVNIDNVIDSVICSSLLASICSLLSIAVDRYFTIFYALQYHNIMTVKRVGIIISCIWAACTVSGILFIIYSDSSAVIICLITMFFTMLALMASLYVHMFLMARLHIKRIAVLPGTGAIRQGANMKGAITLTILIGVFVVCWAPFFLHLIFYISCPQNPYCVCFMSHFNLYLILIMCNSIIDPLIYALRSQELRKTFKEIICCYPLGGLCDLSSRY
MC4R: Melanocortin receptor 4 (MC4R, Homo sapiens, UniProt P32245)

`CCCC[C@H](NC(=O)[C@H](CO)NC(=O)[C@H](Cc1ccc(O)cc1)NC(=O)[C@H](CO)NC(C)=O)C(=O)N[C@@H](CCC(=O)O)C(=O)N[C@@H](Cc1c[nH]cn1)C(=O)N[C@H](Cc1ccc2ccccc2c1)C(=O)N[C@@H](CCCNC(=N)N)C(=O)N[C@@H](Cc1c[nH]c2ccccc12)C(=O)NCC(=O)N[C@@H](CCCCN)C(=O)N1CCC[C@H]1C(=O)N[C@H](C(=O)NCC(=O)N[C@@H](CCCCN)C(=O)N[C@@H](CCCCN)C(=O)N[C@@H](CCCNC(=N)N)C(N)=O)C(C)C` has an EC50 of 121 nM (MC4R L133M; cAMP, agonist).
For `CCCC[C@H](NC(=O)[C@H](CO)NC(C)=O)C(=O)N[C@@H](CCC(=O)O)C(=O)N[C@@H](Cc1c[nH]cn1)C(=O)N[C@H](Cc1ccccc1)C(=O)N[C@@H](CCCNC(=N)N)C(=O)N[C@@H](Cc1c[nH]c2ccccc12)C(N)=O`, the IC50 was 39 ± 4 nM (MC4R; binding, time-resolved fluorescence competition).
With `N=C(N)NCCC[C@H](NC(=O)[C@H](CC(=O)O)NC(=O)[C@@H]1CSCC(=O)NCC(=O)N[C@@H](Cc2c[nH]cn2)C(=O)N[C@H](Cc2ccccc2)C(=O)N[C@@H](CCCNC(=N)N)C(=O)N[C@@H](Cc2c[nH]c3ccccc23)C(=O)N1)C(=O)N[C@@H](Cc1ccccc1)C(=O)NCC(N)=O` the EC50 was 800 nM (MC4R; cAMP, agonist).
With `N=C(N)NCCC[C@H](NC(=O)[C@@H](Cc1ccccc1)NC(=O)[C@H](Cc1c[nH]cn1)NC(=O)CCCCCn1cc(COc2cc(OCc3cn(CCCCCC(=O)N[C@@H](Cc4c[nH]cn4)C(=O)N[C@H](Cc4ccccc4)C(=O)N[C@@H](CCCNC(=N)N)C(=O)N[C@@H](Cc4c[nH]c5ccccc45)C(N)=O)nn3)cc(OCc3cn(CCCCCC(=O)N[C@@H](Cc4c[nH]cn4)C(=O)N[C@H](Cc4ccccc4)C(=O)N[C@@H](CCCNC(=N)N)C(=O)N[C@@H](Cc4c[nH]c5ccccc45)C(N)=O)nn3)c2)nn1)C(=O)N[C@@H](Cc1c[nH]c2ccccc12)C(N)=O` the Ki was 45 nM (MC4R; ligand displacement).
For `CC[C@H](C)[C@H](NC(=O)[C@H](CCC(N)=O)NC(=O)[C@H](CCC(=O)O)NC(=O)[C@H](CCC(=O)O)NC(=O)[C@H](CCCCN)NC(=O)[C@@H]1CCCN1C(=O)[C@H](CC(C)C)NC(=O)[C@H](CO)NC(=O)[C@H](CO)NC(=O)[C@@H](N)CC(C)C)C(=O)NCC(=O)N[C@@H](CCCCN)C(=O)N[C@@H](CO)C(=O)N[C@@H](CO)C(=O)N[C@H](C(=O)N[C@@H](CCCNC(=N)N)C(=O)NCC(=O)N[C@@H](CCCNC(=N)N)C(=O)N[C@@H](CCCCN)C(=O)N[C@@H](CO)C(=O)N[C@@H](CO)C(=O)N[C@@H](CCCNC(=N)N)C(=O)N[C@@H](CCCNC(=N)N)C(=O)N[C@@H](CCCCN)C(=O)N[C@@H](CCCCN)C(N)=O)[C@@H](C)O`, the Ki was greater than 5000 nM (MC4R; HEK-293T transfected; 2 h, 37 °C, with: Eu-NDP-MSH).
The Ki of `N=C(N)NCCC[C@H](NC(=O)[C@@H](Cc1ccccc1)NC(=O)[C@H](Cc1c[nH]cn1)NC(=O)C=Cc1ccc(O)cc1)C(=O)N[C@@H](Cc1c[nH]c2ccccc12)C(N)=O` is reported as greater than 10000 nM (MC4R; binding, TR-FRET competition; HEK293 transfected; 1 h, 37 °C, with: 10 nM Eu-NDP-α-MSH).
`CC[C@H](C)[C@H](NC(=O)CN)C(=O)N[C@H](C(=O)N[C@@H](CC(N)=O)C(=O)N[C@H](C(=O)N[C@@H](CC(C)C)C(=O)N[C@@H](CCC(N)=O)C(=O)N[C@@H](CCC(N)=O)C(=O)N[C@@H](Cc1ccc(O)cc1)C(=O)N[C@@H](Cc1ccc(O)cc1)C(=O)N[C@@H](CO)C(=O)N[C@@H](CCC(N)=O)C(=O)N[C@H](C(=O)N[C@@H](CCCNC(=N)N)C(=O)NCC(=O)NCC(=O)N[C@@H](CCCNC(=N)N)C(=O)N[C@@H](CO)C(=O)N[C@@H](C)C(=O)N[C@H](C(=O)N[C@@H](CC(C)C)C(=O)N[C@@H](CO)C(=O)N[C@@H](CO)C(=O)N[C@@H](CC(C)C)C(=O)N1CCC[C@H]1C(=O)N[C@@H](CCCCN)C(=O)N[C@@H](CCC(=O)O)C(=O)N[C@@H](CCC(=O)O)C(=O)N[C@@H](CCC(N)=O)C(=O)N[C@H](C(=O)NCC(=O)N[C@@H](CCC(N)=O)C(=O)N[C@@H](CO)C(=O)N[C@@H](CO)C(=O)N[C@H](C(=O)N[C@@H](CCC(N)=O)C(=O)NCC(=O)N[C@@H](CCC(N)=O)C(=O)N[C@@H](CCC(N)=O)C(=O)N[C@@H](CO)C(=O)N[C@@H](CO)C(=O)N[C@@H](CCCNC(=N)N)C(=O)N[C@@H](CCCNC(=N)N)C(=O)N[C@@H](CCCCN)C(=O)N[C@@H](CCCCN)C(N)=O)[C@@H](C)O)[C@@H](C)CC)C(C)C)C(C)C)[C@@H](C)O)[C@@H](C)CC` gave a Ki of greater than 5000 nM (MC4R; HEK-293T transfected; 2 h, 37 °C, with: Eu-NDP-MSH).
`CCCC[C@H](NC(=O)[C@@H](NC(=O)[C@@H](N)Cc1ccc(O)cc1)C(C)C)C(=O)NCC(=O)N[C@@H](Cc1c[nH]cn1)C(=O)N[C@@H](Cc1ccccc1)C(=O)N[C@@H](CCCN=C(N)N)C(=O)N[C@@H](Cc1c[nH]c2ccccc12)C(=O)N[C@@H](CC(=O)O)C(=O)N[C@@H](CCCN=C(N)N)C(=O)N[C@@H](Cc1ccccc1)C(=O)NCC(N)=O` gave an IC50 of 64 nM (MC4R; ligand displacement, radioligand).
The IC50 of `N=C(N)NCCC[C@H](NC(=O)[C@@H](Cc1ccccc1)NC(=O)[C@H](Cc1c[nH]cn1)NC(=O)CCc1cn(CC(=O)NCCC(=O)NCCCC(CCCNC(=O)CCNC(=O)Cn2cc(CCC(=O)N[C@@H](Cc3c[nH]cn3)C(=O)N[C@H](Cc3ccccc3)C(=O)N[C@@H](CCCNC(=N)N)C(=O)N[C@@H](Cc3c[nH]c4ccccc34)C(N)=O)nn2)(NC(=O)CNC(=O)CCNC(=O)Cn2cc(CCC(=O)N[C@@H](Cc3c[nH]cn3)C(=O)N[C@H](Cc3ccccc3)C(=O)N[C@@H](CCCNC(=N)N)C(=O)N[C@@H](Cc3c[nH]c4ccccc34)C(N)=O)nn2)C(=O)NCCC(N)=O)nn1)C(=O)N[C@@H](Cc1c[nH]c2ccccc12)C(N)=O` (some centres unmarked) is reported as 73 ± 3.5 nM (MC4R; binding, competitor, time-resolved fluorescence; HEK293 overexpressing MC4R; with: 10 nM Eu-NDP-α-MSH).
`CCCC[C@H](NC(=O)[C@H](CO)NC(=O)[C@H](Cc1ccc(O)cc1)NC(=O)[C@H](CO)NC(C)=O)C(=O)N[C@@H](CCC(=O)O)C(=O)N[C@@H](Cc1c[nH]cn1)C(=O)N[C@H](Cc1ccccc1)C(=O)N[C@@H](CCCNC(=N)N)C(=O)N[C@@H](Cc1c[nH]c2ccccc12)C(=O)NCC(=O)N[C@@H](CCCCN)C(=O)N1CCC[C@H]1C(=O)N[C@H](C(=O)NCC(=O)N[C@@H](CCCCN)C(=O)N[C@@H](CCCCN)C(=O)N[C@@H](CCCNC(=N)N)C(N)=O)C(C)C` has an EC50 of 2.3 nM (MC4R L133M; cAMP, agonist).
For `N=C(N)NCCC[C@H](NC(=O)[C@@H](Cc1ccccc1)NC(=O)[C@H](Cc1c[nH]cn1)NC(=O)CCCCCn1cc(CN(Cc2cn(CCCCCC(=O)N[C@@H](CO)C(N)=O)nn2)Cc2cn(CCCCCC(=O)N[C@@H](CO)C(N)=O)nn2)nn1)C(=O)N[C@@H](Cc1c[nH]c2ccccc12)C(N)=O`, the Ki was 2210 nM (MC4R; ligand displacement).

Repeated from above:
The Ki of `N=C(N)NCCC[C@H](NC(=O)[C@@H](Cc1ccccc1)NC(=O)[C@H](Cc1c[nH]cn1)NC(=O)C=Cc1ccc(O)cc1)C(=O)N[C@@H](Cc1c[nH]c2ccccc12)C(N)=O` is reported as greater than 10000 nM (MC4R; binding, TR-FRET competition; HEK293 transfected; 1 h, 37 °C, with: 10 nM Eu-NDP-α-MSH).
For `N=C(N)NCCC[C@H](NC(=O)[C@@H](Cc1ccccc1)NC(=O)[C@H](Cc1c[nH]cn1)NC(=O)CCCCCn1cc(CN(Cc2cn(CCCCCC(=O)N[C@@H](CO)C(N)=O)nn2)Cc2cn(CCCCCC(=O)N[C@@H](CO)C(N)=O)nn2)nn1)C(=O)N[C@@H](Cc1c[nH]c2ccccc12)C(N)=O`, the Ki was 2210 nM (MC4R; ligand displacement).
